Assay results collected from several papers.
Parts stem from different laboratories: compare values within a part only.
Chain of UniProt Q15759 (whole entry, looked up): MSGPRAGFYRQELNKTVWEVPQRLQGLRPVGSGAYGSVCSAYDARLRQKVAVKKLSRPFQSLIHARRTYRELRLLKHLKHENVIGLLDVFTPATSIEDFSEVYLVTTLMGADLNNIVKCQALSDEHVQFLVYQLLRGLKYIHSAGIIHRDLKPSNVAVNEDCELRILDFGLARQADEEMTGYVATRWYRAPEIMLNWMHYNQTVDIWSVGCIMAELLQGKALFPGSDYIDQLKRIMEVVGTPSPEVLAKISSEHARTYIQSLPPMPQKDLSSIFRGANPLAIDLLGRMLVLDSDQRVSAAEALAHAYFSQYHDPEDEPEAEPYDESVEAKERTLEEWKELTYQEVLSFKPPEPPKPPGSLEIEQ
Chain of UniProt Q16288 (whole entry, looked up): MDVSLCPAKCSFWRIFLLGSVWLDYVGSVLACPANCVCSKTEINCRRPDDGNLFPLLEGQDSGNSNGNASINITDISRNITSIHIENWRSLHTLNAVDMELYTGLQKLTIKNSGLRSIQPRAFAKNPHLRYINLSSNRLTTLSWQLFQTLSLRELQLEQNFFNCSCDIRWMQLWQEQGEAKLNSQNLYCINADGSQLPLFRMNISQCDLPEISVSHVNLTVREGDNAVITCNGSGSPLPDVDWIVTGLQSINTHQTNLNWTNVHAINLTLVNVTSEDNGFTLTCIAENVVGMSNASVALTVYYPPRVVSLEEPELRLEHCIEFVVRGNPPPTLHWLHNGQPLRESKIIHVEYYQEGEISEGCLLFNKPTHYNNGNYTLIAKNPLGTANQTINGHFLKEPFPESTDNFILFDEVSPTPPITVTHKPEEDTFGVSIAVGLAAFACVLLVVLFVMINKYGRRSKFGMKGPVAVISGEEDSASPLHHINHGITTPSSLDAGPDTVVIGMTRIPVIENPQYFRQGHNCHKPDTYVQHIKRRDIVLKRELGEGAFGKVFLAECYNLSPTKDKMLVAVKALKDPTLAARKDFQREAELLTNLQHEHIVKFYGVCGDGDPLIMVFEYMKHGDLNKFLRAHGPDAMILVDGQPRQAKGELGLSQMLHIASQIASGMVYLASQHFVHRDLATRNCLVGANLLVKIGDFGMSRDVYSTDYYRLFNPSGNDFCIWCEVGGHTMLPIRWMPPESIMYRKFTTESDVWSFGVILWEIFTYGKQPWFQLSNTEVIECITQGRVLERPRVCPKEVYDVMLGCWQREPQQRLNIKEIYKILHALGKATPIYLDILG
Chain of UniProt P42336 (whole entry, unmodified, looked up): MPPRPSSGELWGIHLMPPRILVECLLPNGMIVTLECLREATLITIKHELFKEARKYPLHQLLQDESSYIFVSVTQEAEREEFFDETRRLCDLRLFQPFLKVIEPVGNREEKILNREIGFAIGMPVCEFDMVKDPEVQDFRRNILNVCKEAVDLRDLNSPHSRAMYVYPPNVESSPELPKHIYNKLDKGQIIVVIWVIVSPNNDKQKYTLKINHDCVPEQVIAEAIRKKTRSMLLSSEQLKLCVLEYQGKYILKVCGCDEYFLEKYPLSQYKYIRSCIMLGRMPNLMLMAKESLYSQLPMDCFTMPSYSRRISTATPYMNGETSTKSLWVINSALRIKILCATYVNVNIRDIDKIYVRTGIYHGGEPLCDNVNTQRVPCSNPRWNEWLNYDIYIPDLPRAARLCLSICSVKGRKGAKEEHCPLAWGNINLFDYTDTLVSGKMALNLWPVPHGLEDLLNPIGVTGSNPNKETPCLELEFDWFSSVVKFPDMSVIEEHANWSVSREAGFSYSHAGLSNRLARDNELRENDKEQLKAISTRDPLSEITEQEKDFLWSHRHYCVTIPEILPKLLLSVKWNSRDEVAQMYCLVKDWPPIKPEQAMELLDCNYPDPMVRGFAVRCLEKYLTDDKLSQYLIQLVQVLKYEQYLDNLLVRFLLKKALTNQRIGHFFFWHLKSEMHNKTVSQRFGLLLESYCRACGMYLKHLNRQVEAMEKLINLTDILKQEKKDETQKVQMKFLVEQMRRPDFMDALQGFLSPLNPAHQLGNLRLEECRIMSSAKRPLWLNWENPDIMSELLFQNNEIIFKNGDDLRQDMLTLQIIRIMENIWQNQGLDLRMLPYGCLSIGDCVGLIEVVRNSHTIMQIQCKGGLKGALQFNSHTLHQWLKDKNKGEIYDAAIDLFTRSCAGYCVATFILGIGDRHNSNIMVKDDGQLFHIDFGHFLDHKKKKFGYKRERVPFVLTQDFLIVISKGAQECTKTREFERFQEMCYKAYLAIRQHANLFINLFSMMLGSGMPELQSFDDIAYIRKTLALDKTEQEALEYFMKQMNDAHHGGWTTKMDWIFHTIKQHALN
Chain of UniProt Q02750 (whole entry, looked up): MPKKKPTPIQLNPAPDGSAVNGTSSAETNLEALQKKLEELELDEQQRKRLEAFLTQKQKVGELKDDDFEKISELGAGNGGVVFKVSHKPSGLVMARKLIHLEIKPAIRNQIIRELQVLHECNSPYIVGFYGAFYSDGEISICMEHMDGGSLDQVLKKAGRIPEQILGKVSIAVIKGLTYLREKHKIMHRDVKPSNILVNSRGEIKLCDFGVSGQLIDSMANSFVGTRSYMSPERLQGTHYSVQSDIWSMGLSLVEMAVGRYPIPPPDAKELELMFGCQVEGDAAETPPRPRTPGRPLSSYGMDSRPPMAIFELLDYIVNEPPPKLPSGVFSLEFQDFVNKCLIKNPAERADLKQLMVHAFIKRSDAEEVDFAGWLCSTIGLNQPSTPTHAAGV
Chain of UniProt Q8TBX8 (whole entry, looked up): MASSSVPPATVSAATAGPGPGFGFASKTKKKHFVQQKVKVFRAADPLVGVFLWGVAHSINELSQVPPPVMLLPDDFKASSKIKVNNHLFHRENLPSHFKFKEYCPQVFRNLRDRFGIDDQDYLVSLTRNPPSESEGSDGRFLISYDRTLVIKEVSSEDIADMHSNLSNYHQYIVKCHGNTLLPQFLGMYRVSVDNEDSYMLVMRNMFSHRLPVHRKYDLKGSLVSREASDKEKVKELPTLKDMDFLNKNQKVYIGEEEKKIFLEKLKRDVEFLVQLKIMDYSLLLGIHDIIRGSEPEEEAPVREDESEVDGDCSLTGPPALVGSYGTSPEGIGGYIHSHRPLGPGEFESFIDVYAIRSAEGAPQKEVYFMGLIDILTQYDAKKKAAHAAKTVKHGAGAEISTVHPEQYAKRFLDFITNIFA
Chain of UniProt Q13464 (whole entry, looked up): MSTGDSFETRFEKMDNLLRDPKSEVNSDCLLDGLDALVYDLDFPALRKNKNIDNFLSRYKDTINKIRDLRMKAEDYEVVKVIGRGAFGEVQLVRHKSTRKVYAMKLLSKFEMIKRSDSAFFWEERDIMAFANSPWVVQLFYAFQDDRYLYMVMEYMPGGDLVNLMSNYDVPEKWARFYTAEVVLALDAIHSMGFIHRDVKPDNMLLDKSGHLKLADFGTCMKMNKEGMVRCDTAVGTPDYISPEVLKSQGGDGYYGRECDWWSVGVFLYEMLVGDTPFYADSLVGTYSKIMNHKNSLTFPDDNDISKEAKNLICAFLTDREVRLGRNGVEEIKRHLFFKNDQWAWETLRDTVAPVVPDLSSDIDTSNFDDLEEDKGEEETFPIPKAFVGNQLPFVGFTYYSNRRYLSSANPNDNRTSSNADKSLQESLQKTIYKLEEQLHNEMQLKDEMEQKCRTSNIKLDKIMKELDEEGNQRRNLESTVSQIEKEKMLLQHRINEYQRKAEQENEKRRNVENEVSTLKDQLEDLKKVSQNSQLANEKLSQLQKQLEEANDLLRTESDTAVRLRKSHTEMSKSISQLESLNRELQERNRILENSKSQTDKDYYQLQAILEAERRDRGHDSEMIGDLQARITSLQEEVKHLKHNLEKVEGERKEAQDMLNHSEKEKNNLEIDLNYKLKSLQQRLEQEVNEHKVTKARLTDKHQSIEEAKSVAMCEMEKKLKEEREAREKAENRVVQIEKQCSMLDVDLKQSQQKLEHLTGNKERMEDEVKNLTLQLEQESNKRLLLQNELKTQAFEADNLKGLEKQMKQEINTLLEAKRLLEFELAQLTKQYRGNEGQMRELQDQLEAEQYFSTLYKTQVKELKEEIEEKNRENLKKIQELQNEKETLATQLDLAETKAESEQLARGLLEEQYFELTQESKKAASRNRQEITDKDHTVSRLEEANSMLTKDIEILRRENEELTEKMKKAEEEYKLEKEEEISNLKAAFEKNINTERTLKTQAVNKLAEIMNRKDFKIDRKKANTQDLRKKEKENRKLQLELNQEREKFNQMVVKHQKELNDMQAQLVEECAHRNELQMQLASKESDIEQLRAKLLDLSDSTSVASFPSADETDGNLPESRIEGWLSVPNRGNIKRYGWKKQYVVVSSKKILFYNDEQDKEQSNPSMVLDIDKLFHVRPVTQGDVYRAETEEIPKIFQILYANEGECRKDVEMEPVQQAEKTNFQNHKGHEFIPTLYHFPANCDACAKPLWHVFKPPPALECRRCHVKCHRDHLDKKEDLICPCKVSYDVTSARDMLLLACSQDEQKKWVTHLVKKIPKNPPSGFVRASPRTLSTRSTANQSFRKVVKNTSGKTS
Chain of UniProt P49761 (whole entry, looked up): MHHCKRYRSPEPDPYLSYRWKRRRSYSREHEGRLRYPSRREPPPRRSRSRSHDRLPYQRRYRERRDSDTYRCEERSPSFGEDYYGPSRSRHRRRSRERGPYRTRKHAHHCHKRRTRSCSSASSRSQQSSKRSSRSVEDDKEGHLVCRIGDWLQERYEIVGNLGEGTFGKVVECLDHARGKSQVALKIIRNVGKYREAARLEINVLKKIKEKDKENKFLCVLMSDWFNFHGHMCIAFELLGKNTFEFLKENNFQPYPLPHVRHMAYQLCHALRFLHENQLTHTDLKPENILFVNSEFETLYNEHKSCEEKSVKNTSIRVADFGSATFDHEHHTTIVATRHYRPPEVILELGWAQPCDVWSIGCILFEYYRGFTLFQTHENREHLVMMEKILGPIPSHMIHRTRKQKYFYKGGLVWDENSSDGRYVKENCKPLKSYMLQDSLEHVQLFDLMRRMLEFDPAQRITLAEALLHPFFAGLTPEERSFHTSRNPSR

Block 1
Cell line: A-375
Tested at: 100 µM
Time: 18 h
Compound | viability [%]
CN(C)CCCOc1nn(Cc2ccccc2)c2ccccc12 | 66.9
COc1cccc(N(C)C(=S)Oc2ccc3c(c2)CCCC3)n1 | 94
COc1cc(CNC(=O)CCCC/C=C/C(C)C)ccc1O | 36.9
Cc1ccc(-c2ncc(Cl)cc2-c2ccc(S(C)(=O)=O)cc2)cn1 | 87
CC1(C)S[C@@H]2[C@H](NC(=O)[C@H](N)c3ccccc3)C(=O)N2[C@H]1C(=O)OCOC(=O)[C@@H]1N2C(=O)C[C@H]2S(=O)(=O)C1(C)C | 96.4
Nc1nc2[nH]cc(CCc3ccc(C(=O)O)cc3)c2c(=O)[nH]1 | 99.2
COC(=O)C1=CO[C@@H](O[C@@H]2O[C@H](CO)[C@@H](O)[C@H](O)[C@H]2O)[C@@H]2[C@@H](C)[C@@H](O)C[C@H]12 | 112
OCCN1CCN(CC/C=C2/c3ccccc3Sc3ccc(C(F)(F)F)cc32)CC1 | 7.87
C[C@@H]1C/C=C/C=C/C=C/C=C/[C@H](O[C@@H]2O[C@H](C)[C@@H](O)[C@H](N)[C@@H]2O)C[C@@H]2O[C@](O)(C[C@@H](O)C[C@H]3O[C@@H]3/C=C/C(=O)O1)C[C@H](O)[C@H]2C(=O)O | 110
NC[C@H]1O[C@H](O[C@H]2[C@H](O)[C@@H](O[C@H]3O[C@H](CO)[C@@H](O)[C@H](N)[C@H]3O)[C@H](N)C[C@@H]2N)[C@H](N)C[C@@H]1O | 92.3

Block 2
SMILES: COc1ccc(-c2c(Nc3ccccn3)[nH]c3c(C4=CCCCC4)c(-c4ccccc4)nn3c2=O)cc1
Sample: plasma
Route: oral
technique | host | dose | time | notes | plasma concentration, mean [ng/mL]
LC-MS/MS | human | 50 mg once daily | 0 h | cycle 1 | 1090
– | human patients | 150 mg once daily | 24 h | cycle 1 | 4580
– | cancer patients | 100 mg | 2 h post-dose | single dose | 985
LC-MS/MS | human | 200 mg twice daily | 24 h | – | 12700
LC-MS/MS | human | 200 mg twice daily | 4 h | single dose | 1610
– | cancer patients | 400 mg | 1 h post-dose | single dose | 406
LC-MS/MS | human | 200 mg twice daily | 1 h | single dose | 546
LC-MS/MS | human | 200 mg twice daily | 4 h | – | 11100
– | cancer patients | 200 mg | 4 h post-dose | single dose | 1450
– | human patients | 400 mg once daily | 0.5 h | cycle 1 | 3280
– | cancer patients | 200 mg | 48 h post-dose | single dose | 698

Block 3
SMILES: C[C@@H]1CN(c2cc(-c3nn(C)c4ccc(OC5(C)CC5)cc34)ncn2)C[C@H](C)O1
Observed: cell-free assay
Technique: competition with immobilised ligand
Tested at: 1 µM
target | remaining binding
DYRK2 (Homo sapiens, UniProt Q92630) | 83%
Tyrosine-protein kinase ABL1, phosphorylated (ABL1, Homo sapiens, UniProt P00519, H396P) | 70%
PIK3CA (Homo sapiens, UniProt P42336, I800L) | 66%
RIOK1 (Homo sapiens, UniProt Q9BRS2) | 89%
CDK18 (Homo sapiens, UniProt Q07002) | 100%
PIP4K2C (Homo sapiens, UniProt Q8TBX8) | 98%
GRK1 (Homo sapiens, UniProt Q15835) | 100%
STK17A (Homo sapiens, UniProt Q9UEE5) | 81%
NUAK1 (Homo sapiens, UniProt O60285) | 100%
PRKAA1 (Homo sapiens, UniProt Q13131) | 93%
MAP3K12 (Homo sapiens, UniProt Q12852) | 61%
NTRK3 (Homo sapiens, UniProt Q16288) | 65%
ZAP70 (Homo sapiens, UniProt P43403) | 100%
FLT3 (Homo sapiens, UniProt P36888, F691L/ITD) | 87%
TGFBR1 (Homo sapiens, UniProt P36897) | 89%

Block 4
SMILES: O=Nc1c(-c2c(O)[nH]c3ccccc23)[nH]c2ccccc12
Observed: enzyme activity
Mode: inhibitor
Tested at: 0.5 µM
Relative to: control
target | remaining activity
DDR2 (Homo sapiens, UniProt Q16832) | 101%
AKT2 (Homo sapiens, UniProt P31751) | 92%
PRKG2 (Homo sapiens, UniProt Q13237) | 67.3%
CLK3 (Homo sapiens, UniProt P49761) | 48.2%
ROCK1 (Homo sapiens, UniProt Q13464) | 101%
CAMK4 (Homo sapiens, UniProt Q16566) | 97.4%
MARK2 (Homo sapiens, UniProt Q7KZI7) | 78.4%
PAK3 (Homo sapiens, UniProt O75914) | 92.6%
MAP2K1 (Homo sapiens, UniProt Q02750) | 99.6%
CDC42BPB (Homo sapiens, UniProt Q9Y5S2) | 99.5%
MAPK11 (Homo sapiens, UniProt Q15759) | 92.9%
PLK3 (Homo sapiens, UniProt Q9H4B4) | 93%
PNCK (Homo sapiens, UniProt Q6P2M8) | 106%

Excerpt of the above (block 2):
technique | host | dose | time | notes | plasma concentration, mean [ng/mL]
LC-MS/MS | human | 200 mg twice daily | 24 h | – | 12700
LC-MS/MS | human | 200 mg twice daily | 4 h | single dose | 1610
– | cancer patients | 400 mg | 1 h post-dose | single dose | 406
LC-MS/MS | human | 200 mg twice daily | 1 h | single dose | 546
